Measured values pooled from the literature.
Numbered parts are unrelated; each lists some results of a single study. Values joined by “and” are separate records of one study, mostly repeats; a detail may differ.
UniProt Q96L34, sequence (whole entry, looked up): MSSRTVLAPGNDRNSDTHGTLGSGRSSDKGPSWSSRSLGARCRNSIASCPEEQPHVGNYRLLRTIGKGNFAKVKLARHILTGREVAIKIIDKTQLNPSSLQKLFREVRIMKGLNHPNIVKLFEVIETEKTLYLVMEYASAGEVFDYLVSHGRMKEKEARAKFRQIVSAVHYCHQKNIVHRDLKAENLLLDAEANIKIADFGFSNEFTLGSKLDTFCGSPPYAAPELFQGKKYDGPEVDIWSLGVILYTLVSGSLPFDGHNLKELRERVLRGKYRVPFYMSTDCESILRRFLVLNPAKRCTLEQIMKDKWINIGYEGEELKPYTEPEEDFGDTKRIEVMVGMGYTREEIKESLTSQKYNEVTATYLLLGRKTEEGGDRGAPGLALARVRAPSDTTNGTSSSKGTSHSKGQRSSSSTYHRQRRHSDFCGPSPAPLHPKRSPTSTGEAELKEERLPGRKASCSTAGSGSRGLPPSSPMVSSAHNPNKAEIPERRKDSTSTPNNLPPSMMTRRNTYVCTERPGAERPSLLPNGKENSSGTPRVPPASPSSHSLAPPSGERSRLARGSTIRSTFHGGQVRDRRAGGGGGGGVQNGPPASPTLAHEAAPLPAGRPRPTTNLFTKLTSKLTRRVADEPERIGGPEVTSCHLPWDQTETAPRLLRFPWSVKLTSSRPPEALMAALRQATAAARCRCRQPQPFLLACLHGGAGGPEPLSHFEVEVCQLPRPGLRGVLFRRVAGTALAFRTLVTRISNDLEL
UniProt Q9H422, sequence (whole entry, looked up): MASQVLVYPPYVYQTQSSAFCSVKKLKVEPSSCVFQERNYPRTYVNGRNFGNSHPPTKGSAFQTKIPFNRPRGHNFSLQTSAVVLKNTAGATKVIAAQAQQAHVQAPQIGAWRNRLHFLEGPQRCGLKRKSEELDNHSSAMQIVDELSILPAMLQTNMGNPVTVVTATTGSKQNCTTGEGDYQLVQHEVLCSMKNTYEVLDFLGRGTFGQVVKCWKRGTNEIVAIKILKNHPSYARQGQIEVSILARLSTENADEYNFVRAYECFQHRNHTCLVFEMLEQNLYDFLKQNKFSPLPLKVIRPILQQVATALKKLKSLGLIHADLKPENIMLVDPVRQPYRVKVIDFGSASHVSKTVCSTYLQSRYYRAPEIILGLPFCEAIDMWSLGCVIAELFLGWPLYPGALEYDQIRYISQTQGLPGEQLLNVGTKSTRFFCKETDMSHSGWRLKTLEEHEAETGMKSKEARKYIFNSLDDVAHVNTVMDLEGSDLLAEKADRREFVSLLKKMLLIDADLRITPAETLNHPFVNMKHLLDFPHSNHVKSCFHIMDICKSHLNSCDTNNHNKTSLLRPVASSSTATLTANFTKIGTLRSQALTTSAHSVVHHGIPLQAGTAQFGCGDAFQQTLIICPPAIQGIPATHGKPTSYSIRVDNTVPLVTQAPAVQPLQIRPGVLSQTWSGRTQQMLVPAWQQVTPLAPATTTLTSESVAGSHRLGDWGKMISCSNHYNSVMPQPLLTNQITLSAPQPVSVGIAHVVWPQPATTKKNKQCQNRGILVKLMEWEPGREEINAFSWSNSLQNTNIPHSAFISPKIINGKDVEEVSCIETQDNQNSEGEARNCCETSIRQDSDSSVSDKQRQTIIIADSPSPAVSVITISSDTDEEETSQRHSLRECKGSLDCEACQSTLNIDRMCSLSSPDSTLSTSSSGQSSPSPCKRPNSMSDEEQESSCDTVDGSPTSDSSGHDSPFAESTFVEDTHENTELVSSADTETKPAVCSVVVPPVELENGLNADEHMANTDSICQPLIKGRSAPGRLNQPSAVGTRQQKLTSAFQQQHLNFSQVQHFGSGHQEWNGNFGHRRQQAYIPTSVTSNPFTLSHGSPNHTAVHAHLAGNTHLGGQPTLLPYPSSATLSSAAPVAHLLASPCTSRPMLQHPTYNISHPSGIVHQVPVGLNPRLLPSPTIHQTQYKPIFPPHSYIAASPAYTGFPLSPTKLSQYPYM
UniProt Q15139, sequence (whole entry, looked up): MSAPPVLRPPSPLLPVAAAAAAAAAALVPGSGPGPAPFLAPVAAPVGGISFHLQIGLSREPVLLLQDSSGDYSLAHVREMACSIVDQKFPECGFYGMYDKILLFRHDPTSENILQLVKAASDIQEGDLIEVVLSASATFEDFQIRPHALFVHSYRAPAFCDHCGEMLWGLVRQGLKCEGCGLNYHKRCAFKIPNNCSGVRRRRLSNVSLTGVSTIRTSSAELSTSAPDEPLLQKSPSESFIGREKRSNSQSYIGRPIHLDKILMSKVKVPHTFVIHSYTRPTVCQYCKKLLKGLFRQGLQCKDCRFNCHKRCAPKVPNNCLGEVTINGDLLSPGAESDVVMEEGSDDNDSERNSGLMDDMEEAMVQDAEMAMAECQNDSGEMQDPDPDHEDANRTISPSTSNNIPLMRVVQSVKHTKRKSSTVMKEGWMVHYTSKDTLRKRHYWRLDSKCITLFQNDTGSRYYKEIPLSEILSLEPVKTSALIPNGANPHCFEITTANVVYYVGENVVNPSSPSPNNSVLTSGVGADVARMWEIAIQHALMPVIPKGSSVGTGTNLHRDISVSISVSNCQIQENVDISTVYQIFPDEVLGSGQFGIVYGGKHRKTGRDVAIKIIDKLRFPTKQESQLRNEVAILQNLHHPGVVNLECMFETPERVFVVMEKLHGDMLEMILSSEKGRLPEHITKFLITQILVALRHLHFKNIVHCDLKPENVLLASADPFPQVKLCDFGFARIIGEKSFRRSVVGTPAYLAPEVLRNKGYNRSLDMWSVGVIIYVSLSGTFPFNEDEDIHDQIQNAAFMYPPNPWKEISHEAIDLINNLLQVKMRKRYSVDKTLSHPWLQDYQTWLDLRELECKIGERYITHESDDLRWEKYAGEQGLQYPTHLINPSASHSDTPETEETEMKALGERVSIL
UniProt Q06187, sequence (whole entry, looked up): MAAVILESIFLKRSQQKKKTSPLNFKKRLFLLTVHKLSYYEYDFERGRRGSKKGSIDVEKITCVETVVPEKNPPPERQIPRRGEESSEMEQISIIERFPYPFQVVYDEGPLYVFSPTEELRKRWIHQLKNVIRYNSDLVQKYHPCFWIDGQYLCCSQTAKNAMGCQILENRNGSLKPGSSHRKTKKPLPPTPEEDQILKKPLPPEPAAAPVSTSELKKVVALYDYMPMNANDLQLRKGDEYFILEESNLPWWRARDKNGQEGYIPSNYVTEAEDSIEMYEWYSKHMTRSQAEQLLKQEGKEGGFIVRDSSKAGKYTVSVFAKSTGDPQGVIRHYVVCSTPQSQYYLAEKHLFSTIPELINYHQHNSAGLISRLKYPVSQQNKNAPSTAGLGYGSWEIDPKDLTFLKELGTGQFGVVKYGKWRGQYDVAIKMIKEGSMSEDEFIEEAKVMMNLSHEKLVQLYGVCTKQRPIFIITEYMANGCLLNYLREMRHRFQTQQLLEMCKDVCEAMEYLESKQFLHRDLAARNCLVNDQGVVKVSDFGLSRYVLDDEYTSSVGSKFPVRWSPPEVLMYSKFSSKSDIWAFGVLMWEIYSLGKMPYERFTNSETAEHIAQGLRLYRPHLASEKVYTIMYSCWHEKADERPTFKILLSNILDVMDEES
UniProt Q9NRH2, sequence (whole entry, looked up): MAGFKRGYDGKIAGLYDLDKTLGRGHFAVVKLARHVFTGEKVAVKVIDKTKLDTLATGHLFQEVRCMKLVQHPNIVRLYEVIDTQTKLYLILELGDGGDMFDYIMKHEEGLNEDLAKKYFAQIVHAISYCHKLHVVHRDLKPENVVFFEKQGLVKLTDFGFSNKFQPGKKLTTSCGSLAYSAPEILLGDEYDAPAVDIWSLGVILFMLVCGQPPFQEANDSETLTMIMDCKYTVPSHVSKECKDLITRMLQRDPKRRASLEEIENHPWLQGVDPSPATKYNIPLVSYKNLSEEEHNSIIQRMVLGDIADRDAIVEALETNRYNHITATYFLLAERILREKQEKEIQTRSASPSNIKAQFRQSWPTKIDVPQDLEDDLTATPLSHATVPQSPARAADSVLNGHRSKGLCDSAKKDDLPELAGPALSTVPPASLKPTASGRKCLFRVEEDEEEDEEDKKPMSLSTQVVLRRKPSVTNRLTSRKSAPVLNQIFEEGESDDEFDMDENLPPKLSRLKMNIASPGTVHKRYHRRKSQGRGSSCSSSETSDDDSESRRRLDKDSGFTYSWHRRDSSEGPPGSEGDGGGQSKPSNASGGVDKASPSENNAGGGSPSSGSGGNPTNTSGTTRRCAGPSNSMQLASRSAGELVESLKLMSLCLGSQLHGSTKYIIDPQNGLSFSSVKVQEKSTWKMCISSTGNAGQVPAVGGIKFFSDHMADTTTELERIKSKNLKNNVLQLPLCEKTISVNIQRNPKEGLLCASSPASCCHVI

Study 1 — cell line: mouse MPNST tumor cells; technique: high-content immunofluorescence imaging; item: nuclear SOX9; concentration: 10 µM; time: 12 h; notes: mean of 2 replicates; relative to: DMSO control; reading: higher = more nuclear SOX9
| SMILES | nuclear SOX9 intensity |
| --- | --- |
| O=C(NC(Cc1cc(=O)[nH]c2ccccc12)C(=O)O)c1ccc(Cl)cc1 (stereo not shown) | 99.6 % of DMSO |
| CN(C)c1ccc(O)c2c1C[C@H]1C[C@H]3[C@H](N(C)C)C(=O)C(C(N)=O)=C(O)[C@@]3(O)C(=O)C1=C2O | 90.3 % of DMSO |
| Cc1cccc(N2CCN(C(=O)c3cc(S(=O)(=O)N(C)C)ccc3N3CCCC3)CC2)c1C | 89.8 % of DMSO |
| COC(=O)c1cc2c(C(F)(F)F)cc(-c3ccccc3)cc2n1O | 114 % of DMSO |
| CC(C)NCC(O)c1ccc2ccccc2c1 (stereo not shown) | 114 % of DMSO |

Study 2 — concentration: 0.1 µM
SMILES: Cc1c[nH]c2nccc(Oc3c(F)cc(Nc4cc(Cl)nc(N)n4)cc3F)c12
| target | assay | remaining binding [%] |
| --- | --- | --- |
| SNF-related serine/threonine-protein kinase (SNRK, Homo sapiens, UniProt Q9NRH2) | cell-free assay, competition with immobilised ligand | 77 |
| NUAK family SNF1-like kinase 2 (NUAK2, Homo sapiens, UniProt Q9H093) | cell-free assay, competition with immobilised ligand | 85 |
| Tyrosine-protein kinase HCK (HCK, Homo sapiens, UniProt P08631) | cell-free assay, competition with immobilised ligand | 100 |
| Ephrin type-A receptor 4 (EPHA4, Homo sapiens, UniProt P54764) | cell-free assay, competition with immobilised ligand | 100 |
| Leucine-rich repeat serine/threonine-protein kinase 2 (LRRK2, Homo sapiens, UniProt Q5S007, G2019S) | cell-free assay, competition with immobilised ligand | 100 |
| Cyclin-dependent kinase 8 (CDK8, Homo sapiens, UniProt P49336) | cell-free assay, competition with immobilised ligand | 69 |
| Casein kinase I isoform gamma-3 (CSNK1G3, Homo sapiens, UniProt Q9Y6M4) | cell-free assay, competition with immobilised ligand | 100 |
| Tyrosine-protein kinase BTK (BTK, Homo sapiens, UniProt Q06187) | cell-free assay, competition with immobilised ligand | 96 |
| Serine/threonine-protein kinase LATS1 (LATS1, Homo sapiens, UniProt O95835) | cell-free assay, competition with immobilised ligand | 42 |
| Cyclin-dependent kinase 9 (CDK9, Homo sapiens, UniProt P50750) | cell-free assay, competition with immobilised ligand | 78 |
| Vascular endothelial growth factor receptor 3 (FLT4, Homo sapiens, UniProt P35916) | cell-free assay, competition with immobilised ligand | 98 |
| Tyrosine-protein kinase ABL1, phosphorylated (ABL1, Homo sapiens, UniProt P00519, F317I) | binding | 55 |
| Atypical kinase COQ8A, mitochondrial (COQ8A, Homo sapiens, UniProt Q8NI60) | cell-free assay, competition with immobilised ligand | 100 |
| Homeodomain-interacting protein kinase 3 (HIPK3, Homo sapiens, UniProt Q9H422) | cell-free assay, competition with immobilised ligand | 92 |
| Mitogen-activated protein kinase 7 (MAPK7, Homo sapiens, UniProt Q13164) | cell-free assay, competition with immobilised ligand | 82 |
| Serine/threonine-protein kinase D1 (PRKD1, Homo sapiens, UniProt Q15139) | cell-free assay, competition with immobilised ligand | 55 |
| Receptor-interacting serine/threonine-protein kinase 4 (RIPK4, Homo sapiens, UniProt P57078) | cell-free assay, competition with immobilised ligand | 84 |
| Tyrosine-protein kinase ABL1, non-phosphorylated (ABL1, Homo sapiens, UniProt P00519, T315I) | cell-free assay, competition with immobilised ligand | 80 |
| Phosphatidylinositol 4,5-bisphosphate 3-kinase catalytic subunit alpha isoform (PIK3CA, Homo sapiens, UniProt P42336, H1047L) | cell-free assay, competition with immobilised ligand | 81 |
| MAP/microtubule affinity-regulating kinase 4 (MARK4, Homo sapiens, UniProt Q96L34) | cell-free assay, competition with immobilised ligand | 100 |
| Serine/threonine-protein kinase 17B (STK17B, Homo sapiens, UniProt O94768) | cell-free assay, competition with immobilised ligand | 100 |
| Megakaryocyte-associated tyrosine-protein kinase (MATK, Homo sapiens, UniProt P42679) | cell-free assay, competition with immobilised ligand | 88 |
| Interleukin-1 receptor-associated kinase 3 (IRAK3, Homo sapiens, UniProt Q9Y616) | cell-free assay, competition with immobilised ligand | 85 |

Study 3 — read-out: enzyme activity; action: inhibitor; concentration: 0.5 µM; relative to: control
Target: Serine/threonine-protein kinase MARK1 (MARK1, Homo sapiens, UniProt Q9P0L2)
UniProt Q9P0L2, sequence (whole entry, looked up): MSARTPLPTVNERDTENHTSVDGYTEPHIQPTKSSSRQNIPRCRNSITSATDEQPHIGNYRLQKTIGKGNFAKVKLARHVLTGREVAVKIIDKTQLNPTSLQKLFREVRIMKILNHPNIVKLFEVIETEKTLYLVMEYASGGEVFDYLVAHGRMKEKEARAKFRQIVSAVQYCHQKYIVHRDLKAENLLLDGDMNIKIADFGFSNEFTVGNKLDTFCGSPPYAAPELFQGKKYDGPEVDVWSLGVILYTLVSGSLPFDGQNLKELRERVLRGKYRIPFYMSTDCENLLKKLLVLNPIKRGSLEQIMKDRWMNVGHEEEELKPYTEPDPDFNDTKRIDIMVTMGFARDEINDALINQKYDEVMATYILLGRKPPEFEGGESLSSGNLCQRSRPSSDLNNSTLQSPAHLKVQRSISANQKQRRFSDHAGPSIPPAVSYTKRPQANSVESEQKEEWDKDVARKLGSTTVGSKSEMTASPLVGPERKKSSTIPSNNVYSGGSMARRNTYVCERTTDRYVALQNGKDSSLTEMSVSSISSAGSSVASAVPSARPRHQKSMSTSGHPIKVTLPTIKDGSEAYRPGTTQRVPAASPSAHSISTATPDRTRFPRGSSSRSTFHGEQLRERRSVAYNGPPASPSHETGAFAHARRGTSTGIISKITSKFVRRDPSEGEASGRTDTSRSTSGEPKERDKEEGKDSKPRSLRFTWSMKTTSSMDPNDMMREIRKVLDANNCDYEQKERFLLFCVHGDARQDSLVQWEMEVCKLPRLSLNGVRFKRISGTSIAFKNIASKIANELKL
| SMILES | remaining activity |
| --- | --- |
| CSc1nc(-c2ccnc(N[C@@H](C)c3ccccc3)c2)c(-c2ccc(F)cc2)[nH]1 (racemic) | 95.3% |
| CC#CC(=O)Nc1cc2c(Nc3ccc(F)c(Cl)c3)ncnc2cn1 | 98.2% |
| Oc1ccc(Nc2nc(-c3ccc(Cl)cc3)cs2)cc1 | 93.7% |
| Cc1cc(Nc2nc(-c3ccccc3)nc3ccccc23)n[nH]1 | 93.7% |
| CCc1[nH]c(-c2ccc(OC)cc2)nc1-c1ccncc1 | 99.2% |
| Nc1nc(Nc2ccc(S(N)(=O)=O)cc2)nn1C(=O)c1c(F)cccc1F | 64.1% |
| N#CC(=C(N)Sc1ccc(N)cc1)c1ccccc1C(F)(F)F | 99.9% |

Study 4 — species: mouse; sample: microsomes or S9; concentration: 2 µM; time: 0.5 h
| SMILES | remaining compound [%] |
| --- | --- |
| CNc1nc(NC(C)(C)C)nc(NC(C)(C)C)n1 | 5.17 |
| CN/C(=N/c1cc(C)nn1-c1ccccc1)c1cccs1 | 4.79 |
| O=C(NNc1ncnc2[nH]cnc12)C1CCCCC1 | 84.4 |
| Cc1nn(CC(C)C)c2sc(C(=O)N3CCN(CC(=O)NC4CC4)CC3)cc12 | 12.7 |
| Clc1nnc(Cl)c2c1ncn2Cc1ccccc1 | 90.7 |
| CCC[C@@H]1CN(C(=O)c2ccc3c(=O)n(C)cnc3c2)C[C@H]1NC(C)=O | 88.7 |
| O=C(Nc1ccc(Cc2nnn[nH]2)cc1)C1CCN(c2ccc(Cl)cn2)CC1 | 96 |

Study 5 — species: human; sample: plasma; route: oral
Compound: COc1ccc(-c2c(Nc3ccccn3)[nH]c3c(C4=CCCCC4)c(-c4ccccc4)nn3c2=O)cc1
| assay | setting | AUC(0-t) |
| --- | --- | --- |
| LC-MS/MS non-compartmental | 50 mg once daily, cycle 1 | 32.3 µg·h/mL |
| LC-MS/MS | 50 mg once daily | 33 µg·h/mL and 34.9 µg·h/mL |
| – | 200 mg twice daily | 243 µg·h/mL and 255 µg·h/mL |
| LC-MS/MS non-compartmental | 200 mg twice daily, cycle 1 | 234 µg·h/mL |
